Measurements of several laboratories.
Several values in a cell are separate wells, animals, samples, runs or records. ± gives the spread as reported.
Aryl hydrocarbon receptor: Aryl hydrocarbon receptor (Danio rerio, UniProt Q9YGV3)

SMILES | target or system | assay | system | conditions | scale | endpoint | value
Nc1nnc(-c2ccccc2O)cc1N1CCN(Cc2ccc(OCCOCCNc3cccc4c3C(=O)N(C3CCC(=O)NC3=O)C4=O)c(F)c2)CC1 (stereo not shown) | SMARCA2 (Homo sapiens, UniProt P51531) | immunohistochemistry | mouse, NCI-H322 xenograft, tumour | dose not given | baseline: vehicle | reduction in positive cells | 62%
F[C@@H]1CCN(c2nccc(-c3cnn4ncccc34)n2)C1 | ABL1 (Homo sapiens, UniProt P00519, H396P) | KINOMEscan |  | 1 µM |  | remaining binding | 72% and 100%
Cn1cc(-c2ccc(-c3cncc(Cl)c3N3CCC4(CCNC4=O)CC3)cc2)cn1 | COLO 205 | microarray, refers to: ITPR1 |  | concentration not given, 6 h, gene set IP3R1 | baseline: untreated cells | fold change in expression | 2.31
Cn1c2c(Cl)c(Cl)ccc2c2cc[nH]c(=O)c21 | Serine/threonine-protein kinase VRK3 (VRK3, Homo sapiens, UniProt Q8IV63) | thermal stability, thermal shift |  | 10 µM | higher = stronger binding | delta Tm | -0.1 °C
COC(=O)CCc1ccc(C(=O)N/N=C/C(Br)=C/c2ccccc2)cc1 | HDAC6 (Homo sapiens, UniProt Q9UBN7) | inhibitor, fluorogenic |  | 5 and 10 µM | baseline: SAHA | enzyme activity | no effect
O=c1nc(SCc2cc(F)cc(C(F)(F)F)c2)nc(SCc2ccc3sccc3c2)[nH]1 | TOP2A (Homo sapiens, UniProt P11388) | ATPase activity |  | 15.6 µM, together with: ATP 0.75 mM |  | ATP hydrolysis rate | 1.56 µM/min and 0.83 µM/min
CC[C@H](C)[C@H](NC(=O)[C@H](CCCNC(=N)N)NC(=O)[C@H](Cc1c[nH]cn1)NC(=O)[C@H](CCCNC(=N)N)NC(=O)[C@H](CC(=O)O)NC(=O)[C@@H](N)CC(=O)O)C(=O)N[C@@H](CCC(=O)O)C(=O)N[C@@H](CCC(=O)O)C(=O)N[C@@H](CCCCN)C(=O)N[C@@H](CCCNC(=N)N)C(=O)N[C@@H](CCCCN)C(=O)N[C@@H](CCCNC(=N)N)C(=O)N[C@H](C(=O)N[C@@H](Cc1ccc(O)cc1)C(=O)N[C@@H](CCC(=O)O)C(=O)N[C@H](C(=O)N[C@@H](Cc1ccccc1)C(=O)N[C@@H](CCCCN)C(=O)N[C@@H](CO)C(=O)N[C@H](C(=O)N[C@@H](CCSC)C(=O)N[C@@H](CCCCN)C(=O)N[C@@H](CCCCN)C(=O)N[C@@H](CO)C(=O)N1CCC[C@H]1C(=O)N[C@@H](Cc1ccccc1)C(=O)N[C@@H](CC(N)=O)C(=O)NCC(=O)N1CCC[C@H]1C(=O)O)[C@@H](C)CC)[C@@H](C)O)[C@@H](C)O | NF-kappa-B inhibitor alpha (Homo sapiens, UniProt P25963) | binding, ITC |  | pH 7.5, 293 K, 50 mM NaCl |  | -TΔS | -4.4 ± 0.2 kcal/mol
O=C(COP(=O)(O)O)[C@@H](O)[C@H](O)[C@H](O)COP(=O)(O)O | PMM2 (Homo sapiens, UniProt O15305) |  |  | 0.5 mM, unit not given | baseline: activity at 0 mM set to 100 | enzyme activity | 82.9 and 89.7 and 93.9
CC[C@@H]1[C@H](F)C(=O)N[C@@H]1COc1nccc2cc(C(N)=O)c(OC)cc12 | RPS6KA2 (Homo sapiens, UniProt Q15349) | ATP-site probe binding, ActivX profiling, refers to: RSK3 | THP-1 cell lysate | 0.01 mM, Lys2 site |  | inhibition | -10.4%
O=C(O)c1ccc(Nc2ncc3c(n2)-c2ccc(Cl)cc2C(c2c(F)cccc2F)=NC3)cc1 | human c-RAF(h) | kinase activity |  | 1 µM |  | remaining activity | 115%
Nc1ccc2ccc3cccc4ccc1c2c34 | Aryl hydrocarbon receptor | reporter gene, agonist, luciferase reporter | ZF-4 | 370.37 µM | baseline: vehicle control | fold change | 1.96
CC1=C(/C=C/C(C)=C/C=C/C(C)=C/C=O)C(C)(C)CCC1 | Rhodopsin (RHO, Bos taurus, UniProt P02699, G270S) | retinal release, Trp FRET | lipid bicelles | 28 °C, G270S mutant | baseline: wild-type rhodopsin | relative koff | 1.84 ± 0.02
CC(=O)N[C@H]1C(OCCOP(=O)(O)OC[C@H]2O[C@@H](n3ccc(=O)[nH]c3=O)[C@H](O)[C@@H]2O)O[C@H](CO)[C@@H](O)[C@@H]1O (stereo partly shown) | Alpha-1,6-mannosyl-glycoprotein 2-beta-N-acetylglucosaminyltransferase (Mus musculus, UniProt Q921V5) | enzyme activity, HPLC |  | 2500 µM, together with: UDP-GlcNAc 0.5 mM | baseline: no compound | relative activity | 0.877
c1ccc2c(c1)-c1cccc3c1c-2cc1ccccc13 | Aryl hydrocarbon receptor | reporter gene, agonist, luciferase reporter | ZF-4 | 123.5 µM | baseline: vehicle control | fold change | 8.72
CCCCCCCCCCCCC/C=C/[C@@H](O)[C@H](CO)NC(=O)CCCCCCCCCCCCC | Protein SET (SET, Homo sapiens, UniProt Q01105, K222D) | lipid binding, GFP pull-down LC-MS/MS | A549 overexpressing GFP-tagged protein | unit not given | baseline: vector-transfected cells | bound endogenous lipid | 6.6
NCCCC(=O)O | SLC6A6 (Homo sapiens, UniProt P31641, L306A) | binding, microscale thermophoresis |  | 125 µM, room temperature, together with: 50 nM labelled protein | higher = more binding | normalised MST signal | 0.178

Excerpt of the above:
SMILES | target or system | assay | system | conditions | scale | endpoint | value
CC1=C(/C=C/C(C)=C/C=C/C(C)=C/C=O)C(C)(C)CCC1 | Rhodopsin (RHO, Bos taurus, UniProt P02699, G270S) | retinal release, Trp FRET | lipid bicelles | 28 °C, G270S mutant | baseline: wild-type rhodopsin | relative koff | 1.84 ± 0.02
CC(=O)N[C@H]1C(OCCOP(=O)(O)OC[C@H]2O[C@@H](n3ccc(=O)[nH]c3=O)[C@H](O)[C@@H]2O)O[C@H](CO)[C@@H](O)[C@@H]1O (stereo partly shown) | Alpha-1,6-mannosyl-glycoprotein 2-beta-N-acetylglucosaminyltransferase (Mus musculus, UniProt Q921V5) | enzyme activity, HPLC |  | 2500 µM, together with: UDP-GlcNAc 0.5 mM | baseline: no compound | relative activity | 0.877
